Measurements from different studies.
Each numbered part is a random draw from the data of one study; scales do not carry over between parts.
Chain of UniProt P49841 (whole entry, looked up): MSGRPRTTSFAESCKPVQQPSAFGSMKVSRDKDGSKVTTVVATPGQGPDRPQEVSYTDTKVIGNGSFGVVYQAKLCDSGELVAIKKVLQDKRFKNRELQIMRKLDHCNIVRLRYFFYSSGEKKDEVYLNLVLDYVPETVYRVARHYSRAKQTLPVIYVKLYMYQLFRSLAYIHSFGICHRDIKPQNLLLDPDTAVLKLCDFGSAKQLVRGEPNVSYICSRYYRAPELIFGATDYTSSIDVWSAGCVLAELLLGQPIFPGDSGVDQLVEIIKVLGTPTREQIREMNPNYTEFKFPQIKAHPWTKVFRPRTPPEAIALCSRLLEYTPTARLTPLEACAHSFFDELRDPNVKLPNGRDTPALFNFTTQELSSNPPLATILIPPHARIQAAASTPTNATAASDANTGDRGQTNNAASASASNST
Chain of UniProt Q8IYT8 (whole entry, looked up): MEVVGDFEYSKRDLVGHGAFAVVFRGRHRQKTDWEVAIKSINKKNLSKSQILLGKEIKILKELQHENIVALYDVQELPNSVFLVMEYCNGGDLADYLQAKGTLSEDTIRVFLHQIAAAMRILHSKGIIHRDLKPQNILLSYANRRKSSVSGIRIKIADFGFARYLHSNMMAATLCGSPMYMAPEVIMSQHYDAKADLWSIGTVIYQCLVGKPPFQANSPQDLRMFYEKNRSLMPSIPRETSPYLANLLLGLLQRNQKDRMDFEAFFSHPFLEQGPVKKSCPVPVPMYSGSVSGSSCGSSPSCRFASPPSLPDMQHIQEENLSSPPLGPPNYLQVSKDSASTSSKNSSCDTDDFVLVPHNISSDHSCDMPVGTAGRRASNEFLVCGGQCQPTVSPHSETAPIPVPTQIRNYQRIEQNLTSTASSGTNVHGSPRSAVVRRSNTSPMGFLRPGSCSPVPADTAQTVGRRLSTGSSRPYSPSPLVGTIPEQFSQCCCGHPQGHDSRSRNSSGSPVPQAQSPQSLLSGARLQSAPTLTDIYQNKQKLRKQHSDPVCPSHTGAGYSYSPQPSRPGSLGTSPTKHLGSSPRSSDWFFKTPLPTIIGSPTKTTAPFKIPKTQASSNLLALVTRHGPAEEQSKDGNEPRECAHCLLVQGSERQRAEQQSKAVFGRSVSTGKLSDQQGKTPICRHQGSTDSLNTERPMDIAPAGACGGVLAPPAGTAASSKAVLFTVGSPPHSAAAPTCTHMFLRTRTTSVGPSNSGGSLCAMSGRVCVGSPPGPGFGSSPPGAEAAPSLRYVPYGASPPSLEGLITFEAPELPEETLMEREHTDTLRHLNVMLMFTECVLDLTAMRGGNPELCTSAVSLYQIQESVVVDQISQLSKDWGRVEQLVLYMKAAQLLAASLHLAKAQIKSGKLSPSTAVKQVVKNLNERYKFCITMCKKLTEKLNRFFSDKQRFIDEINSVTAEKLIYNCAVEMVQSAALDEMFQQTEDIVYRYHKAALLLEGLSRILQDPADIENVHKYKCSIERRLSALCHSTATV
Chain of UniProt Q96PY6 (whole entry, looked up): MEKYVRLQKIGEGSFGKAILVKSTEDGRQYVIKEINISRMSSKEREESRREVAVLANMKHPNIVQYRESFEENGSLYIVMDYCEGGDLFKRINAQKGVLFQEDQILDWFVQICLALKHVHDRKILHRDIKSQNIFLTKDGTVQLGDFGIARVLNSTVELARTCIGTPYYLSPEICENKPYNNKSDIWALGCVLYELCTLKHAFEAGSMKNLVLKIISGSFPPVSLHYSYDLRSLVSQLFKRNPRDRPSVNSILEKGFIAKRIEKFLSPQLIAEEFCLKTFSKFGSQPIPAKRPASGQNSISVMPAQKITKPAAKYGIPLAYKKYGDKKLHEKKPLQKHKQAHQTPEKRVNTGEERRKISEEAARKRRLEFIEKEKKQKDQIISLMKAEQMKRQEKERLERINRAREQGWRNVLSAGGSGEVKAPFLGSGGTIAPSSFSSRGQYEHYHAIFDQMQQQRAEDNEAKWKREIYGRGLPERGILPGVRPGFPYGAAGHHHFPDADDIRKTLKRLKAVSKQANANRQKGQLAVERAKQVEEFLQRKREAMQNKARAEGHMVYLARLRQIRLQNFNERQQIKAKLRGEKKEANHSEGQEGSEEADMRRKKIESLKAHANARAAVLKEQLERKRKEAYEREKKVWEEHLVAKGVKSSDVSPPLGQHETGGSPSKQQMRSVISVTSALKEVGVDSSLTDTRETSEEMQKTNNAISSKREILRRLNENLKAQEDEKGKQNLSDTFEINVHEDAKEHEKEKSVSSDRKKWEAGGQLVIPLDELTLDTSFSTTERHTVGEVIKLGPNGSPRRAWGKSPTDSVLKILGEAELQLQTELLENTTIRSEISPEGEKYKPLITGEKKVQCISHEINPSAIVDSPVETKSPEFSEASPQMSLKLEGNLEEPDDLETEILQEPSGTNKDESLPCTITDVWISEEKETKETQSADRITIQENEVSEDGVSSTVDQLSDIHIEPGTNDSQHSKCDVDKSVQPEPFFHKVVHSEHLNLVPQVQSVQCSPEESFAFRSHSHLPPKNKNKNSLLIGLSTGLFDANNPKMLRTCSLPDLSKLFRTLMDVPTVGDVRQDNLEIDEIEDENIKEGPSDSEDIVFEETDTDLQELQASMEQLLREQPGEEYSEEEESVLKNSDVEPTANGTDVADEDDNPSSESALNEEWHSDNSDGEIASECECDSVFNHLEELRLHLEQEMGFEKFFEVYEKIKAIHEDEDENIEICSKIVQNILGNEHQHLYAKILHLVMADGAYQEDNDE
Chain of UniProt P06239 (whole entry, looked up): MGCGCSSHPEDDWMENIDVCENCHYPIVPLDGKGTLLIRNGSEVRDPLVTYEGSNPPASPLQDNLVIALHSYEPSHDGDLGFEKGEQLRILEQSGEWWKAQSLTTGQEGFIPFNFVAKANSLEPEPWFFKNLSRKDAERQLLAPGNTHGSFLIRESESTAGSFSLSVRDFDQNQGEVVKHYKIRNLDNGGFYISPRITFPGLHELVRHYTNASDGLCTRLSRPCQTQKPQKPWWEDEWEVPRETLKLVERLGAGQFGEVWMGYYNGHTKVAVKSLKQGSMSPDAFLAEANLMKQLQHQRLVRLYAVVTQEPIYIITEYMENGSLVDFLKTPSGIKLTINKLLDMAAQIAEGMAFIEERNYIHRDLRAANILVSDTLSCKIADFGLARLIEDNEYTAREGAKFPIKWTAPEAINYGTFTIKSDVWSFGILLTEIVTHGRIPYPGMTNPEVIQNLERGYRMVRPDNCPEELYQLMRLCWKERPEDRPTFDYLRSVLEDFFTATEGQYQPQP
Chain of UniProt P36896 (whole entry, looked up): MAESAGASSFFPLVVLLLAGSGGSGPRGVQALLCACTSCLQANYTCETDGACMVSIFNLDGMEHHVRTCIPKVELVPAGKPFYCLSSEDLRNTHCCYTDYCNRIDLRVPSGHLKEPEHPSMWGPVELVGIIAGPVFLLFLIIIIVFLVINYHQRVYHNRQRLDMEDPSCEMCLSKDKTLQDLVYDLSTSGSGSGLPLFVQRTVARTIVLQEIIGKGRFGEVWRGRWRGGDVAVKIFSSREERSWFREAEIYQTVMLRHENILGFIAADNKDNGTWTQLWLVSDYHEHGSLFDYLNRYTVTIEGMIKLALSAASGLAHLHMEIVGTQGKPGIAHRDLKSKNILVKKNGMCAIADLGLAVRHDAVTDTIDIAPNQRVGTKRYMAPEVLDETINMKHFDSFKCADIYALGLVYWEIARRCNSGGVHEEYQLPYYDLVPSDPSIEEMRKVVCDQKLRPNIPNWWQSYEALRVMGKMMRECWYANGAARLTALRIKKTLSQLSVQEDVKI
Chain of UniProt P15056 (whole entry, looked up): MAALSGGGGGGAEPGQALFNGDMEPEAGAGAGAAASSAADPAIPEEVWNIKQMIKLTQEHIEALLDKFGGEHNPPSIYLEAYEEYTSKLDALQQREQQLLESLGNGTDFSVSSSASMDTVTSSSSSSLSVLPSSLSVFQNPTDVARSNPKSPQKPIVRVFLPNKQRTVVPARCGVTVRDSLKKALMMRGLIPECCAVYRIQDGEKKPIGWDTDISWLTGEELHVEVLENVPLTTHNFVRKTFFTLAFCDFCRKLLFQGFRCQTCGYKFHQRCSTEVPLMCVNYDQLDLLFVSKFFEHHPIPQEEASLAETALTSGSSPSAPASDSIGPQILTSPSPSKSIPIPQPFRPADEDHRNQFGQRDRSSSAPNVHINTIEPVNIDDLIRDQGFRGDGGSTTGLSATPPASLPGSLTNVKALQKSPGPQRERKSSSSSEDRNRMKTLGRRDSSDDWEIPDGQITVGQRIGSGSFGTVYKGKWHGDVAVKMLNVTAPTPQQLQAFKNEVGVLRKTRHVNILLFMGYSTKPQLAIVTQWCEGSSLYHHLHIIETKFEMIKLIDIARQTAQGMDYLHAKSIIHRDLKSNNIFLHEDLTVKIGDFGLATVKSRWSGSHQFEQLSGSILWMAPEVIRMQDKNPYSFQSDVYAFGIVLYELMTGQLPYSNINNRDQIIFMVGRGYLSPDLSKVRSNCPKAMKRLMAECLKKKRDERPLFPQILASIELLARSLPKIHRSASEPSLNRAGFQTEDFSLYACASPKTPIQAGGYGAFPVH
Chain of UniProt P27361 (whole entry, looked up): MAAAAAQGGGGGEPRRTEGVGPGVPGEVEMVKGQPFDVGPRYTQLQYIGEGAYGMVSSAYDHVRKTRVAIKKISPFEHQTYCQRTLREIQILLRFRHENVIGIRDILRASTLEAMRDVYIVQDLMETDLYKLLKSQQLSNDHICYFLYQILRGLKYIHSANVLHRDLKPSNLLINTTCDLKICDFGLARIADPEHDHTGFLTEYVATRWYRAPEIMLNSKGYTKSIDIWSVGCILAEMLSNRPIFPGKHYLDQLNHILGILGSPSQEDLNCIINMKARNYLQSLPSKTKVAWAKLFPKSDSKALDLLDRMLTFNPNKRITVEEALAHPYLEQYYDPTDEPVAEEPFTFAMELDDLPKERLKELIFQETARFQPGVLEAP

Series 1 — technique: protein-binding microarray; molecule type: double-stranded DNA, one strand shown; medium: in vitro; concentration: not given; direction: higher = stronger binding
Target: Myc proto-oncogene protein, bHLH-zipper, MAX partner unstated (MYC, Homo sapiens, UniProt P01106, residues 368-449)
Chain of UniProt P01106 (368-449, looked up): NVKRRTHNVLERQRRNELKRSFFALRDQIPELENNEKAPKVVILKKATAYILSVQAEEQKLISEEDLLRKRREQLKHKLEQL
Notes: k-mer, scored over probes, only values ≥0.25
Strand	E-score
CTCCACGC	0.41
ACACATGG	0.469
ATGTGACG	0.344
GCACGGGA	0.264
GGACACGA	0.273
AACGTGCC	0.364
AGCGCACG	0.384
CGTGTCGC	0.353

Series 2 — Structure (SMILES): Cc1ccc(NC2=CC(=O)c3sc(C)nc3C2=O)cc1; read-out: enzyme activity; action: inhibitor; concentration: 0.5 µM; reference: control
target	remaining activity
MERTK (Homo sapiens, UniProt Q12866)	80.5%
NEK1 (Homo sapiens, UniProt Q96PY6)	76.5%
CSNK1G2 (Homo sapiens, UniProt P78368)	99.9%
FGFR3 (Homo sapiens, UniProt P22607)	86%
ACVR1B (Homo sapiens, UniProt P36896)	110%
RPS6KA2 (Homo sapiens, UniProt Q15349)	82.5%
WEE1 (Homo sapiens, UniProt P30291)	107%
ULK2 (Homo sapiens, UniProt Q8IYT8)	96.9%
JAK3 (Homo sapiens, UniProt P52333)	97.4%
LCK (Homo sapiens, UniProt P06239)	94.2%
GSK3B (Homo sapiens, UniProt P49841)	82%
FRK (Homo sapiens, UniProt P42685)	87.9%
GRK7 (Homo sapiens, UniProt Q8WTQ7)	101%
MAPK3 (Homo sapiens, UniProt P27361)	100%

Series 3 — technique: competition with immobilised ligand; concentration: 1 µM
SMILES: CCC(=O)N[C@@H]1CC[C@H](C(=O)N(C)c2ccc(-c3nc4ccccc4o3)cc2)C1
target	read-out	remaining binding [%]
TESK1 (Homo sapiens, UniProt Q15569)	cell-free assay	75
PIK3CD (Homo sapiens, UniProt O00329)	cell-free assay	100
BRAF (Homo sapiens, UniProt P15056)	cell-free assay	96
BMPR1A (Homo sapiens, UniProt P36894)	binding	96
PIK3C2B (Homo sapiens, UniProt O00750)	cell-free assay	70

Mixed results
Compound	cell line	concentration	time	measurement	value
CO[C@H]1C[C@@H]2CC[C@@H](C)[C@@](O)(O2)C(=O)C(=O)N2CCCC[C@H]2C(=O)O[C@H]([C@H](C)C[C@@H]2CC[C@@H](OC(=O)C(C)(CO)CO)[C@H](OC)C2)CC(=O)[C@H](C)/C=C(\C)[C@@H](O)[C@@H](OC)C(=O)[C@H](C)C[C@H](C)/C=C/C=C/C=C/1C	HaCaT	100 µM	18 h	viability	58.3%

Excerpt of the above (series 3):
target	read-out	remaining binding [%]
TESK1 (Homo sapiens, UniProt Q15569)	cell-free assay	75
PIK3CD (Homo sapiens, UniProt O00329)	cell-free assay	100
BRAF (Homo sapiens, UniProt P15056)	cell-free assay	96
BMPR1A (Homo sapiens, UniProt P36894)	binding	96
PIK3C2B (Homo sapiens, UniProt O00750)	cell-free assay	70
